{"data": "Experimental data from different studies", "note": "Each line is one published result; not all experiments were run side by side. Values joined by “and” are separate records of one study, mostly repeats; a detail may differ. Numbers after ± are the reported error."}
{"SMILES": "N=C(N)NCCC[C@@H]1NC(=O)[C@H](CO)NC(=O)[C@@H](NC(=O)[C@H](CO)NC(=O)[C@H](CO)NC(=O)[C@H](Cc2c[nH]c3ccccc23)NC(=O)CNC(=O)[C@H](CO)NC(=O)[C@@H](N)Cc2c[nH]c3ccccc23)CSSC[C@@H](C(=O)NCC(=O)O)NC(=O)[C@H](CO)NC1=O", "test": "LC-MS/MS", "system": "human, cerebrospinal fluid", "conditions": "dose not given, lumbar puncture after treatment", "endpoint": "CSF concentration", "value": "not detected"}
{"SMILES": "Cc1ccc(OCC(=O)N(Cc2cccs2)c2ccn[nH]2)cc1", "test": "ex vivo plasma stability", "system": "human plasma", "conditions": "750 ng/mL, 24 h, 37 °C", "endpoint": "remaining compound", "value": "90%"}
{"SMILES": "CN1CCC[C@]1(C)/C=C/S(=O)(=O)NC(=O)Nc1c2c(cc3c1CC(O)C3)CCC2 (some centres unmarked)", "system": "human, plasma", "conditions": "oral, 50 mg twice daily of parent drug, day 1, metabolite of dosed drug", "endpoint": "AUC(0-24)", "value": "72.6 µg·h/mL"}
{"SMILES": "O=C(Nc1cnccc1-c1ccc([18F])cc1)c1ccnc(NC(=O)C2CC2)c1", "test": "ex vivo gamma counting", "system": "GSK-3β transgenic mice, late-stage, cerebellum", "conditions": "intravenous, 120 min, mean, P-gp inhibitor pretreatment, added: tariquidar 15 mg/kg iv", "endpoint": "SUV", "value": 0.21}
{"SMILES": "CN1CCC[C@]1(C)/C=C/S(=O)(=O)NC(=O)Nc1c2c(cc3c1C(O)CC3)CCC2 (some centres unmarked)", "system": "human, plasma", "conditions": "oral, 100 mg twice daily of parent drug, day 14, metabolite of dosed drug", "endpoint": "AUC(0-24)", "value": "398 µg·h/mL"}
{"SMILES": "CC(=O)N([O-])CCCCCNC(=O)CCC(=O)N([O-])CCCCCNC(=O)CCC(=O)N([O-])CCCCCN.[89Zr+4]", "system": "mouse, pancreas", "conditions": "24 h", "endpoint": "tracer uptake", "value": "0.03 %ID/g"}
{"SMILES": "[123I]c1ccc2nc(-c3ccc(-n4ccnn4)nc3)cn2c1", "system": "male Wistar rat, lung", "conditions": "intravenous, 4 MBq, 6 h", "endpoint": "tracer uptake", "value": "0.101 %ID/g"}
{"SMILES": "Cc1nn(-c2nc3c(F)cc(F)cc3s2)c(O)c1C(c1ccc(C(F)(F)F)cc1)c1c(C)nn(-c2nc3c(F)cc(F)cc3s2)c1O", "system": "ICR mouse", "conditions": "oral, 50 mg/kg, 1.00 h", "endpoint": "plasma concentration", "value": "70900 ng/mL and 561 ng/mL and 106000 ng/mL"}
{"SMILES": "COc1cc2ncnc(Oc3ccc(Nc4nccc5[nH]cc(-c6ccc(F)cc6)c(=O)c45)cc3F)c2cc1OC", "system": "male cynomolgus monkey, plasma", "conditions": "oral, 3 mg/kg", "endpoint": "Cmax", "value": "2020 ng/mL"}
{"SMILES": "CC(C)(O)c1ncc([S@](N)(=O)=NC(=O)Nc2c3c(cc4c2CCC4)CCC3)s1", "test": "measured: skin, subcutaneous tissue disorders", "system": "healthy human", "conditions": "oral, 100 mg, CT formulation, fed", "endpoint": "subjects with TEAEs", "value": "33%"}
{"SMILES": "N#Cc1cc(NC(=O)C2c3ccccc3C(=O)N(CC(F)(F)F)C2c2ccc[n+]([O-])c2)ccc1F (centres unmarked)", "system": "human, plasma", "conditions": "concentration not given, single-dose cohorts, interim", "endpoint": "maximum Cmax", "value": "2180 ng/mL"}
{"SMILES": "CN(C)C(=O)c1cccc(N2Cc3cn(Cc4cc(Cl)cc(Cl)c4)nc3C2)c1", "test": "metabolic stability", "system": "human, liver microsomes", "endpoint": "half-life", "value": "30 min"}
{"SMILES": "C=C(NC(=O)c1csc(-c2nc3c(cc2O)-c2nc(cs2)C(=O)NC(C(C)O)C(=O)NC(=C(C)OC)c2nc(cs2)C(=O)NC2c4nc(cs4)C(=O)NC(COC(=O)c4c5c6c(cccc6n4O)COC(=O)C(OC4CC(C)(O)C(N(C)C)C(C)O4)C2OC5)c2nc-3cs2)n1)C(N)=O (centres unmarked)", "system": "female cynomolgus monkey, plasma", "conditions": "intravenous, 1 mg/kg, single dose, infusion", "endpoint": "Cmax", "value": "11300 ng/mL"}
{"SMILES": "Cc1cc(-c2ccc(C(=O)[C@@H]3CCCC[C@H]3C(=O)Nc3cnn4c3C(=O)NCC4)cc2)[nH]n1", "system": "human, urine", "conditions": "oral, 200 mg, 24-48 h", "scale": "relative to: dose", "endpoint": "recovery of radioactivity per interval", "value": "0.34%"}
{"SMILES": "Cc1nc(N)nc2c1C(=O)N[C@@H](c1ccc(F)cc1-c1cccc(O[11CH3])n1)C2", "test": "ex vivo biodistribution", "system": "mice, U87 subcutaneous xenograft, urine", "conditions": "60 min post-injection, baseline, vehicle pre-treatment", "endpoint": "tracer uptake", "value": "0.4 ± 0.2 %ID"}
{"SMILES": "C=CC(=O)Nc1cc(Nc2nccc(-c3cn(C)c4ccccc34)n2)c(OC)cc1N(C)CCNC", "system": "human, dried blood spots", "conditions": "10 d, -80 °C, high QC level", "endpoint": "remaining compound", "value": "102%"}
{"SMILES": "CN1CCC[C@]1(C)/C=C/S(=O)(=O)NC(=O)Nc1c2c(cc3c1CCC3)CC=C2", "system": "human, plasma", "conditions": "oral, 100 mg twice daily of parent drug, day 1, metabolite of dosed drug", "endpoint": "AUC(0-24)", "value": "697 µg·h/mL"}
{"SMILES": "O=C([O-])CN1CCN(CC(=O)[O-])CCN(CC(=O)NC[C@H]2CC[C@H](C(=O)N[C@H](Cc3cnc4ccccc4c3)C(=O)NCCCC[C@H](NC(=O)N[C@@H](CCC(=O)O)C(=O)O)C(=O)O)CC2)CCN(CC(=O)[O-])CC1.[64Cu+2]", "test": "ex vivo gamma counting", "system": "22Rv1 tumour-bearing mice, liver", "conditions": "intravenous, 0.74 MBq, 1 h post-injection", "endpoint": "tissue uptake", "value": "19.2 %ID/g"}
{"SMILES": "CCCCN1C(=O)c2cccc3c(NCCCCCCCCCCN4CCOCC4)ccc(c23)C1=O", "system": "dioxane", "endpoint": "fluorescence lifetime", "value": "10 ns"}
{"SMILES": "O=S1(=O)CC2CCCCC2CS1 (centres unmarked)", "test": "phase solubility, NMR", "system": "water", "conditions": "25 °C, added: hydroxypropyl-β-cyclodextrin 526 mM", "endpoint": "solubility", "value": "57.3 mM"}
{"SMILES": "Cc1ccc(CN2C(=O)/C(=N\\c3ccc(Cl)cc3Br)c3ccccc32)cc1", "system": "mouse, blood", "conditions": "200 mg/kg", "endpoint": "haemoglobin", "value": "147 ± 4.12 g/L"}
{"SMILES": "CCN(CC)c1ccc2c(c1)O[B-]1(c3ccccc3C)OC(=O)C(c3ccccc3)=N[N+]1=C2 (centres unmarked)", "test": "UV/vis decay", "system": "aqueous buffer", "endpoint": "hydrolysis activation energy", "value": "22.6 kcal/mol"}
{"SMILES": "COc1ccc(Nc2nc(Nc3ccc(OCCOCCOCC[18F])cc3)ncc2Br)cc1", "system": "ICR mice, S180 tumour", "conditions": "intravenous, 370 kBq, 5 min", "scale": "relative to: tumour over bone", "endpoint": "uptake ratio", "value": 0.98}
{"SMILES": "CCN(CC)c1ccc2c(c1)O[B-]1(c3ccccc3OC)OC(=O)C(c3ccccc3)=N[N+]1=C2 (centres unmarked)", "test": "UV/vis decay", "system": "aqueous buffer", "endpoint": "hydrolysis activation energy", "value": "22.9 kcal/mol"}
{"SMILES": "CC[C@H](C)[C@H](NC(=O)[C@@H](NC(=O)[C@H](CCCCN)NC(=O)[C@@H](NC(=O)[C@@H]1CCCN1[C@@H]1CN(C(=O)[C@@H](NC(=O)[C@@H](NC(=O)[C@@H](NC(=O)[C@@H](NC(=O)[C@@H](NC(=O)[C@@H](N)CCCCN)C(C)C)C(C)C)C(C)C)[C@@H](C)CC)[C@@H](C)O)CC[C@H]1NS(=O)(=O)c1ccc(C)cc1)[C@@H](C)O)C(C)C)C(=O)N[C@@H](CC(C)C)C(=O)N[C@@H](Cc1c[nH]cn1)C(N)=O", "test": "CD spectroscopy", "system": "20 mM phosphate buffer", "conditions": "125 µM, 20 °C", "endpoint": "beta-sheet content", "value": "29.5%"}
{"SMILES": "O=C(Nc1cnccc1-c1ccc([18F])nc1)c1ccnc(NC(=O)C2CC2)c1", "test": "ex vivo gamma counting", "system": "FVB/NJ mice, both sexes, eyes", "conditions": "intravenous, 120 min, added: tariquidar 15 mg/kg iv", "endpoint": "mean SUV", "value": 0.091}
{"SMILES": "C#Cc1c(F)ccc2cc(O)cc(-c3ncc4c(N5CC6CCC(C5)N6C(=O)OC(C)OC(=O)CC[C@@H](C)[C@H]5CC[C@H]6[C@@H]7CC[C@@H]8C[C@H](O)CC[C@]8(C)[C@H]7C[C@H](O)[C@]56C)nc(OC[C@@]56CCCN5C[C@H](F)C6)nc4c3F)c12 (some centres unmarked)", "test": "chemical stability", "system": "simulated intestinal fluid", "conditions": "1 µM, 30 min", "endpoint": "compound remaining", "value": "105%"}
{"SMILES": "C/C(N)=N/C(=N\\S(=O)(=O)c1ccc(C(F)(F)F)cc1)N1C[C@H](c2ccccc2)C(c2ccc(Cl)cc2)=N1", "system": "male C57BL/6 mouse, lung", "conditions": "intravenous, 10 mg/kg", "scale": "relative to: lung over plasma", "endpoint": "tissue to plasma AUC ratio", "value": 32}
{"SMILES": "COc1ccc(OC(C)=O)cc1-c1c[nH]c2ncc(-c3cncc(C(=O)N(C)C)c3)cc12", "test": "HPLC", "conditions": "50 µM, 37 °C, no lysine, followed to 24 h", "endpoint": "hydrolytic half-life", "value": "> 1440 min"}
{"SMILES": "O=C(NS(=O)(=O)c1cccs1)c1cc2ccccc2n1Cc1ccc(Br)c2ccccc12", "system": "KM mouse, chronic hyperuricaemia model", "conditions": "dose not given, day 24", "endpoint": "body weight", "value": "38.5 g and 37.4 g and 34 g and 37.5 g and 40.2 g and 36.6 g"}
{"SMILES": "Cc1noc(C)c1Cn1cc(N2C(=O)CN(Cc3cccc(O[C@@H]4O[C@H](C(=O)O)[C@@H](O)[C@H](O)[C@H]4O)c3)C2=O)cn1", "system": "rat Sprague-Dawley male, plasma", "conditions": "oral, 100 mg/kg of parent drug, 4 h", "endpoint": "plasma concentration", "value": "31.8 ± 16.8 ng/mL"}
{"SMILES": "COc1cc(N2CCN(C(=O)C3CCCN3)CC2)ccc1Nc1ncc(Cl)c(Nc2ccccc2P(C)(C)=O)n1 (centres unmarked)", "system": "nude mice, NCI-H3122 xenograft", "conditions": "oral, dose not given, day 3", "endpoint": "body weight", "value": "22.9 g and 24.7 g and 23.4 g and 23.6 g"}
{"SMILES": "N#Cc1ccnc(N2C(=O)CC[C@H]2C(=O)N(c2cc(F)cc(F)c2)[C@H](C(=O)NC2CC(F)(F)C2)c2ccccc2Cl)c1 (stereo in doubt)", "system": "cynomolgus monkey, plasma", "conditions": "oral, 10 mg/kg", "endpoint": "bioavailability", "value": "43%"}
{"SMILES": "C=CC(=O)Nc1cc(Nc2nccc(-c3c[nH]c4ccccc34)n2)c(OC)cc1N(C)CCN(C)C", "test": "storage stability", "system": "human plasma", "conditions": "24 h, on ice, high QC level", "endpoint": "recovery", "value": "82.3%"}
{"SMILES": "COc1ccc2c(c1)CCn1c[n+]3c(c1-2)-c1ccc(OC)cc1CC3", "system": "female NSG mice, blood", "conditions": "6 mg/kg, day 14, 5 days per week", "endpoint": "mean platelet volume", "value": "5.24 ± 0.48 fL"}
{"SMILES": "CN1CCC[C@]1(C)/C=C/S(=O)(=O)NC(=O)Nc1c2c(cc3c1CCC3O)CCC2 (some centres unmarked)", "system": "human, plasma", "conditions": "oral, 12.5 mg twice daily of parent drug, day 14, metabolite of dosed drug", "endpoint": "AUC(0-24)", "value": "213 µg·h/mL"}
{"SMILES": "CC[C@H](C)[C@@H]1NC(=O)[C@H](Cc2ccc(O)cc2)NC(=O)CCCSC[C@@H](C(=O)N(CC(=O)N[C@@H](CC(C)C)C(=O)NCC(N)=O)Cc2ccc(F)cc2)NC(=O)[C@H](CC(N)=O)NC(=O)[C@H](CCC(N)=O)NC1=O", "system": "human, urine", "conditions": "intravenous, 20 µg", "scale": "relative to: dose", "endpoint": "maximum undetected urinary excretion", "value": "≤ 0.5%"}
{"SMILES": "CN(CCNCc1ccncc1O)CCNCc1ccncc1O", "test": "potentiometric titration", "system": "aqueous KCl solution", "conditions": "1 mM, 25 °C, 0.1 M KCl", "endpoint": "protonation constant logK1H", "value": 9.8}
{"note": "Excerpt of the above:"}
{"SMILES": "CC(=O)N([O-])CCCCCNC(=O)CCC(=O)N([O-])CCCCCNC(=O)CCC(=O)N([O-])CCCCCN.[89Zr+4]", "system": "mouse, pancreas", "conditions": "24 h", "endpoint": "tracer uptake", "value": "0.03 %ID/g"}
{"SMILES": "CN(CCNCc1ccncc1O)CCNCc1ccncc1O", "test": "potentiometric titration", "system": "aqueous KCl solution", "conditions": "1 mM, 25 °C, 0.1 M KCl", "endpoint": "protonation constant logK1H", "value": 9.8}
{"SMILES": "C=CC(=O)Nc1cc(Nc2nccc(-c3c[nH]c4ccccc34)n2)c(OC)cc1N(C)CCN(C)C", "test": "storage stability", "system": "human plasma", "conditions": "24 h, on ice, high QC level", "endpoint": "recovery", "value": "82.3%"}
